Published values from different studies.
Compare with care: the assays were run in different laboratories.
HLA class I histocompatibility antigen, A alpha chain allele A*02:01: HLA class I histocompatibility antigen, A alpha chain, allele A*02:01 (Homo sapiens, UniProt P04439)
HLA class I histocompatibility antigen, A alpha chain allele A*01:01: HLA class I histocompatibility antigen, A alpha chain, allele A*01:01 (Homo sapiens, UniProt P04439)
HLA class I histocompatibility antigen, A alpha chain allele A*24:02: HLA class I histocompatibility antigen, A alpha chain, allele A*24:02 (Homo sapiens, UniProt P04439)
HLA class I histocompatibility antigen, A alpha chain allele A*30:02: HLA class I histocompatibility antigen, A alpha chain, allele A*30:02 (Homo sapiens, UniProt P04439)

CC(C)[C@H](NC(=O)[C@@H](NC(=O)[C@H](CCCNC(=N)N)NC(=O)[C@H](C)NC(=O)[C@H](C)NC(=O)[C@H](CCC(=O)O)NC(=O)[C@H](CO)NC(=O)[C@H](C)NC(=O)[C@@H](N)Cc1ccccc1)C(C)C)C(=O)O
IC50 (HLA class I histocompatibility antigen, A alpha chain allele A*02:01; peptide-MHC binding, radioligand competition binding): 0.495 µM

CC(C)C[C@H](NC(=O)[C@@H](NC(=O)[C@H](Cc1c[nH]cn1)NC(=O)[C@H](CC(=O)O)NC(=O)[C@H](CC(N)=O)NC(=O)[C@H](CCC(N)=O)NC(=O)[C@H](C)N)C(C)C)C(=O)N[C@@H](Cc1ccc(O)cc1)C(=O)N[C@@H](Cc1ccc(O)cc1)C(=O)O
IC50 (HLA class I histocompatibility antigen, A alpha chain allele A*01:01; binding): 14.9 µM

CC(C)[C@H](NC(=O)CNC(=O)CNC(=O)[C@@H](NC(=O)[C@H](CO)NC(=O)[C@@H]1CCCN1C(=O)[C@H](C)NC(=O)[C@H](CO)NC(=O)[C@H](CCCCN)NC(=O)[C@@H](N)CCCNC(=N)N)[C@@H](C)O)C(=O)O
IC50 (HLA class I histocompatibility antigen, A alpha chain, allele A*02:06 (Homo sapiens, UniProt P04439); binding): > 38.7 µM

CC(C)[C@H](NC(=O)[C@H](C)NC(=O)[C@@H](N)Cc1ccccc1)C(=O)N[C@@H](CC(=O)O)C(=O)N[C@@H](C)C(=O)N[C@@H](C)C(=O)N[C@@H](CCCCN)C(=O)N[C@@H](C)C(=O)N[C@@H](Cc1ccc(O)cc1)C(=O)O
IC50 (HLA class I histocompatibility antigen, A alpha chain allele A*02:01; peptide-MHC binding, radioligand competition binding): > 70 µM

CC[C@H](C)[C@H](NC(=O)[C@H](CCC(N)=O)NC(=O)[C@@H]1CCCN1C(=O)[C@H](Cc1ccc(O)cc1)NC(=O)[C@@H]1CCCN1C(=O)[C@@H](N)CC(C)C)C(=O)N[C@@H](CC(C)C)C(=O)N[C@@H](CC(C)C)C(=O)N[C@@H](CC(C)C)C(=O)O
IC50 (HLA class I histocompatibility antigen, A alpha chain allele A*24:02; binding, competitor): 24.1 µM

CSCC[C@H](NC(=O)[C@H](CCC(=O)O)NC(=O)[C@H](CCC(=O)O)NC(=O)[C@@H](N)CCCNC(=N)N)C(=O)N[C@@H](CCC(=O)O)C(=O)N[C@H](C(=O)N[C@@H](Cc1c[nH]cn1)C(=O)N[C@@H](CCC(=O)O)C(=O)N[C@@H](CC(C)C)C(=O)O)C(C)C
IC50 (HLA class I histocompatibility antigen, A alpha chain allele A*30:02; binding, competitor, radioligand competition; two days, room temperature, HLA-A*30:02): > 40 µM

CC(C)[C@H](NC(=O)[C@H](Cc1c[nH]cn1)NC(=O)[C@H](CCC(=O)O)NC(=O)[C@H](Cc1ccccc1)NC(=O)[C@H](CCC(N)=O)NC(=O)[C@H](C)N)C(=O)N1CCC[C@H]1C(=O)N[C@@H](CCC(N)=O)C(=O)N[C@@H](Cc1ccc(O)cc1)C(=O)O
IC50 (HLA class I histocompatibility antigen, A alpha chain allele A*02:01; binding): 53.6 µM

CSCC[C@H](NC(=O)[C@@H](NC(=O)[C@@H](NC(=O)[C@H](CC(C)C)NC(=O)[C@H](CC(N)=O)NC(=O)[C@H](CC(N)=O)NC(=O)[C@@H](NC(=O)[C@H](C)NC(=O)[C@@H](N)CC(C)C)[C@@H](C)O)C(C)C)C(C)C)C(=O)O
IC50 (HLA class I histocompatibility antigen, A alpha chain, allele A*26:01 (Homo sapiens, UniProt P04439); peptide-MHC binding, radioligand competition binding): > 70 µM

CSCC[C@H](NC(=O)[C@@H](N)Cc1c[nH]cn1)C(=O)N[C@@H](Cc1ccc(O)cc1)C(=O)N1CCC[C@H]1C(=O)N[C@@H](CC(N)=O)C(=O)N[C@@H](Cc1ccccc1)C(=O)N[C@H](C(=O)N[C@@H](CCC(N)=O)C(=O)N[C@@H](Cc1ccccc1)C(=O)O)C(C)C
IC50 (HLA class I histocompatibility antigen, A alpha chain allele A*24:02; binding): 4.92 µM

CC[C@H](C)[C@H](NC(=O)[C@H](CCCNC(=N)N)NC(=O)CNC(=O)[C@@H](NC(=O)[C@@H]1CCCN1C(=O)[C@@H](N)CCSC)[C@@H](C)CC)C(=O)N[C@@H](C)C(=O)N[C@@H](CCC(=O)O)C(=O)N[C@@H](CS)C(=O)N[C@H](C(=O)N[C@@H](CC(C)C)C(=O)O)[C@@H](C)CC
IC50 (HLA class I histocompatibility antigen, A alpha chain allele A*30:02; binding, competitor, radioligand competition; two days, room temperature, HLA-A*30:02): > 40 µM

CC(C)[C@H](NC(=O)[C@@H](NC(=O)[C@H](CCC(=O)O)NC(=O)[C@@H](NC(=O)[C@H](Cc1ccccc1)NC(=O)[C@H](C)NC(=O)[C@H](CO)NC(=O)[C@@H](NC(=O)[C@@H](N)CO)[C@@H](C)O)C(C)C)[C@@H](C)O)C(=O)O
IC50 (HLA class I histocompatibility antigen, A alpha chain allele A*02:01; peptide-MHC binding, radioligand competition binding): 0.026 µM

CSCC[C@H](NC(=O)[C@H](Cc1c[nH]cn1)NC(=O)[C@H](Cc1ccccc1)NC(=O)[C@@H]1CCCN1C(=O)[C@H](CCCCN)NC(=O)[C@H](CCC(=O)O)NC(=O)[C@H](Cc1c[nH]c2ccccc12)NC(=O)[C@H](CC(C)C)NC(=O)[C@@H](N)CCCNC(=N)N)C(=O)O
IC50 (HLA class I histocompatibility antigen, A alpha chain allele A*01:01; binding): 53.7 µM

For quick reference, copied from above:
CSCC[C@H](NC(=O)[C@H](CCC(=O)O)NC(=O)[C@H](CCC(=O)O)NC(=O)[C@@H](N)CCCNC(=N)N)C(=O)N[C@@H](CCC(=O)O)C(=O)N[C@H](C(=O)N[C@@H](Cc1c[nH]cn1)C(=O)N[C@@H](CCC(=O)O)C(=O)N[C@@H](CC(C)C)C(=O)O)C(C)C
IC50 (HLA class I histocompatibility antigen, A alpha chain allele A*30:02; binding, competitor, radioligand competition; two days, room temperature, HLA-A*30:02): > 40 µM
